Experimental data pooled from the literature.
Each numbered part is a random draw from the data of one study; scales do not carry over between parts.

Set 1
Target: Histone acetyltransferase KAT6A, winged helix 1, GST fusion (KAT6A, Homo sapiens, UniProt Q92794, residues 1-85)
Method: protein binding microarray
Form: double-stranded DNA, one strand shown
Matrix: in vitro
Concentration: not given
Notes: 8-mer, flanks averaged, mean of 2 arrays, mostly near background
Reference: not given
Direction: higher = stronger binding
Residues (chain): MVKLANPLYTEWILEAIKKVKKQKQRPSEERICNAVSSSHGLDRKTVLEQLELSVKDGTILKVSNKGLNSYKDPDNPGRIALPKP
Strand | E-score
CGCGACCC | 0.267
ATGCTTAG | -0.0387
CGGTTAGA | 0.105
ATCCACTG | -0.142
CCAATACG | 0.0692
GATCTGCA | -0.236
CCAGTACC | -0.141
AAGCTTTC | 0.0694
ATGAGAGC | -0.226
GCCAAGAC | -0.183
GGGCCCAA | -0.204
CTTGAACA | -0.148
ATTATGGA | -0.124
CCATTATA | -0.0807
CGTGAACC | 0.0677
AGGCAGGG | -0.255
AGAACTAC | 0.0128
GTCGGGGA | 0.199
CGGCGCCA | 0.414
CAATGGCC | -0.0334
ACGTTATA | -0.117
ATTGAGTC | -0.106
ACGCTTTG | 0.234
CACCTGCC | -0.173
CGCCTAAA | 0.134

Set 2
Target: RING finger protein unkempt homolog, zinc fingers 1-6, GST-SBP tag (UNK, Homo sapiens, UniProt Q9C0B0, residues 30-357)
Method: RNA Bind-n-Seq
Form: RNA
Matrix: in vitro
Concentration: not given
Notes: RNA with constant flanks, human and mouse sites, ends assumed
Reference: input RNA pool
Direction: higher = stronger binding
Construct (chain): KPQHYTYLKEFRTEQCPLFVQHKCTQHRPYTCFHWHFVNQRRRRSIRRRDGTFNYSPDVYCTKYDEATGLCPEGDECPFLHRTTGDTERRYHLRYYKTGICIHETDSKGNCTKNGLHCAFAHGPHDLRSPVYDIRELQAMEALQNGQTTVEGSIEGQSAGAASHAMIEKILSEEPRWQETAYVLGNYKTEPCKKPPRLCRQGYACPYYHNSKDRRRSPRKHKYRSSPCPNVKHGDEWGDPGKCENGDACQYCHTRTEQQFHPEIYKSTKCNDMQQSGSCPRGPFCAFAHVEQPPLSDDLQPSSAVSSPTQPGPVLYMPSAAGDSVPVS
Strand | bound/input enrichment
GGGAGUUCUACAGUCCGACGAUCUAUAAUAAUCAUGAAAUUCGUUCCGGGAAGCACAUUGGUGUCUGCAUCUCAGUUGCCAACAAUAGGCUUUUUGUGGGCUCGAUUCCUAAGAGUAAAACCAAGGAGCAGAUUCUUGAGGAACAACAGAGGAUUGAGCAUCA | 0.81 ratio
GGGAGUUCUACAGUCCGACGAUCUCCUCCGUGAUGUAGACUGGGGAGACGUGGACUACCUCAUCGUAGACACCCCGCCUGGCACGUCUGACGAACACCUCUCAGUGGUCCAGUACCUGGCUGCGGCACACAUUGAUGGGGCAGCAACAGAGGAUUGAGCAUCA | 4.61 ratio
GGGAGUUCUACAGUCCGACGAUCUAAUAUUUUUGUGAACUGGUGUAAAUUGUUAAUGCAUAUAAGCUUGUGUAUUUUUGUAAAUAGUUUUGUGAUUUAUUUCUUGCCCCAUAUGUAAAUAUUUAGAGUCUCAUUUCUUGCAAACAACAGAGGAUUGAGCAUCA | 1.77 ratio
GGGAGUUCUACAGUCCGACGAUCUGUUUUUUCUGCAUCUGGAAGGGUGUUCGAUCCACAGGCAAGGUUGUCUACUUCACCGCUACUUUCCCGUUUGCCAUGCUUCUGGUGCUGCUGGUCCGUGGACUGACCCUGCCAGGUGCUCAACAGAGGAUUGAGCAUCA | 0.199 ratio
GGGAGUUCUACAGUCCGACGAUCUUGGUGGCUAUUUUUAAACCCAGCUGUAUUAAAAGGUGAUGUUGAAUUUUACGACACCCCUACCAUGGCCUGCUUUUAAAUUCGGGGCUUCUAAACCUGGUUGUACUUUUUAAAUUAUAUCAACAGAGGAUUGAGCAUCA | 0.345 ratio
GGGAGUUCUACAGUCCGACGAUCACUGGAAAGACUCUGGUUGCCAGAGCACUUGCCAAUGAGUGCAGUCAAGGGGAUAAAAGAGUAGCAUUUUUCAUGAGGAAAGGUGCUGAUUGUCUAAGUAAAUGGGUAGGAGAAUCUGAACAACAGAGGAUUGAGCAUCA | 0.318 ratio
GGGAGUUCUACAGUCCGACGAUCGAAGGUCUUGAAAUAGCAAUGAAACAGGCCCUAAGGAAAUCUGCUUGUCGAGUUUUUGCUAUGGAGGCUUUCAACUGGCUUCUGUGUAAUGUCAUCCAAACCACUUCUCUCCAUGAUAUUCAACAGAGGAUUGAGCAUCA | 0.206 ratio
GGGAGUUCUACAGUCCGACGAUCGGCACGAGGCUUCCUGCCUCUUCCCUCUUCCUCCUUGUAAGAGCUUCAACCCAAGUCCUCCAAUUCACAUUAAGGAAUCCAUACUAAAGGGGGACUUGAGGGUGUGUACCCUACAGGCCACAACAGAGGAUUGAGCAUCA | 0.098 ratio
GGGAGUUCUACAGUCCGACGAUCGGGGCCGAUGCAGAGACUUUCUCAGAGGGUGAGAUGGUCACAUUUAUAAACUGGGGCAACAUCAACAUUACUAAAAUACACAAAAAUGCAGAUGGAAAAAUUACAUCUCUAGAUGCAAAACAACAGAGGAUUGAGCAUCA | 0.47 ratio
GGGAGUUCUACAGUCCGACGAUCAAUGUCCUUAAAGCAAUUGAGCAGGCUGAUCUACUGCAGGAGGAAGCUGAAACCCCACGUAGUGUUCUUGAAGAAAUUGGACUGACAUAACUCUCCUCCCUUGUUGAUGACUUCUUGUGGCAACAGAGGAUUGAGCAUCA | 0.961 ratio
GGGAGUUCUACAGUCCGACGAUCUGUUCCCAGAGCCCCCAGCGCAGGCCGGGAUGUUCGUCCUGGUGGAAAUGGUGGACACCGUCCGGAUCCCCCCUUGGCAGUUUGAGAGGAAGCUCAACGACUCCAUUGCCGAGGAGCUGACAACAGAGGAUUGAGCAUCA | 0.144 ratio

Set 3
Target: Hepatocyte nuclear factor 3-alpha (Foxa1, Mus musculus, UniProt P35582, residues 1-468, full length assumed)
Method: EMSA with sequencing
Form: double-stranded DNA, one strand shown
Matrix: in vitro
Concentration: 10 and 20 nM
Notes: whole designed probe, mean of two concentrations, ends assumed
Reference: negative control set to 0
Direction: higher = stronger binding
Residues (chain): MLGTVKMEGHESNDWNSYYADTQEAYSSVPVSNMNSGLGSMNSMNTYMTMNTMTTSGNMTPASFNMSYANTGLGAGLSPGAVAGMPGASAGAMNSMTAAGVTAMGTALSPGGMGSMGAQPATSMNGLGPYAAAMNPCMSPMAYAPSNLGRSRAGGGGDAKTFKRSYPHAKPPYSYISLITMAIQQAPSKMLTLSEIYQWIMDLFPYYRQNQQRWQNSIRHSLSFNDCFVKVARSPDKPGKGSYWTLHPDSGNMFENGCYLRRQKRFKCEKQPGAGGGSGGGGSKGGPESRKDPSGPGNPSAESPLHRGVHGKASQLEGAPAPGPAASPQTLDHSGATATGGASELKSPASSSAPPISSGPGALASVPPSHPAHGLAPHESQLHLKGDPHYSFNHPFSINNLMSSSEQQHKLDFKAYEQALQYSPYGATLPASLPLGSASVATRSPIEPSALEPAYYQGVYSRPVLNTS
Strand | normalised bound fraction
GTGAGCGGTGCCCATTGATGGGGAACCAGCAAGGAATTTATAAGAAAATGATGTTGAGAAACCATTCTATTTCTCCAAGGAGCAGAGCCACCACACATTTACACAAGGATGTTCTTGCTAGATTACACATACAACACAGTATGCTTCTAGGTGCAGTTGCATTCCAGGCAGCCCCGAGTGGCAGTCTCCCATTTTGGCATCTGTTGGCAGGAGGTTATCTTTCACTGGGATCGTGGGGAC | 0.0349 ratio
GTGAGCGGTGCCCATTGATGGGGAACGCTGAAGAAGTATTCCACATCCGTCCAAGTGGACTATTCACTTAAGAAAACATTAATGCCATTTGCTGGCACAGATGCCCTTGCATGGCTCATAGATTACATACTGAAAAACATCTAGCTCCACTGAGCTTTTAAAATTAACTAGAGCCCTTGAACTGTCCAGGCAAAGAGAAAATCATCAGTAATATTTAAATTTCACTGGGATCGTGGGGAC | 0.0748 ratio
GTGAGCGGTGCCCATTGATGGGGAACCTTGTTCTCATTGTGTGATGGAAAGCCTGTTGGGCTAAGAGTCTAGCAACCGGATTCTATCACTAAGTCTGTGCAAACCTGAATCTATTGCTTGTTTACATAATCTGTAAATGCAAGTGCTAATTACCAAGTGAATTCAGCTATAACACTCATTTCTACCACAATTTAGTAAGCCAACTCGACCCATCGCTCATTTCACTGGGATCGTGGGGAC | 0.42 ratio
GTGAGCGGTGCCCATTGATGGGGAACAAACTAAAGAGTATATTTTTAATGTGAAAGGTTATTTAATTTTGCCATATTAAAACAAATGAGGACCAGTGGTTTTATAATATCAATATATTTGTTTACATTGTAAGGGGTTATTTATAATAAAAGCAATTTTATATTACATGTTACTGTGTGTTTCTGTTTTCAGAAAAAAAATGAAAACTAAAAGAAAAAATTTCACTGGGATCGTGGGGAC | 0.587 ratio
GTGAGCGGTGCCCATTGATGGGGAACTCTCTTTTAAAAATAGTGTTGGTGATATTTTAATTTTTTTTCCAACCAGTTTATATTTTACCAAACGCTTTTCCAAAGGCTGGACATACAATGTAAACAAGAAGGTGGAAATGTTACCCAGAGATGTCTAGCTTGTTGCTGAACTACAAATTTATTATTTAGAGGAAAGTTTACACTAGACATGTTGTCCAGATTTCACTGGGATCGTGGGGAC | 0.395 ratio
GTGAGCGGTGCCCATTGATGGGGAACCTTTTAAATATTTCAAAAACTATAACTTATAGGATTGCCAATAAGTAGAAAACTTAGATACTACCTTTTCCCATCCTTTATTTTATTTCAGTGTAAACATGGCTTTTATTTAACTATTTATATTTTCTTTAATAAAATTTTTAAGAAATTGTACAGGTTTCATAACATTTTATTGTCATCCTGTGCTTAGATTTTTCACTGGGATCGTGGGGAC | 0.177 ratio
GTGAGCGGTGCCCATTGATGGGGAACTTTTAAAGATTATGTAGAATTTTTAATCGAGAGTTAATTTTGTCTGCAGCATAACTCCTCCTCAAGGCAAAATACTTCTTATGATCAGATCAGAGTAAACATCCAGTGCACACAAAGTAATTTAAAATGCAAATAGTTTGTTATTAAATACCAGTTATGCATCAGTAGGAAGGACATTGTGGGAGTTGTTTGGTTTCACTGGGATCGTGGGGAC | 0.295 ratio
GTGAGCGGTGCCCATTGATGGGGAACCTGAATCCGCCTTCTGTCCCACACCCAACTCCTGCTCTGCCTCTGCAGCCACCTGCAGGCTCTCAGCGCACTCCTCAAAATCTATTTCTGCTGTGTTTACCCAACACGACGAGCAGGAAACTCCCTTGAAATTCCCAGGCCTTTCCCAGAGTTCCTCAGTTCCTTTTCTTAAAATTCCTGCTGTCCCCAAAGATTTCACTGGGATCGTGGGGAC | 0.21 ratio

Set 4
Target: Sal-like protein 4, full length isoform B (SALL4, Homo sapiens, UniProt Q9UJQ4-2, residues 1-616)
Method: universal PBM
Form: double-stranded DNA, one strand shown
Matrix: in vitro
Concentration: not given
Notes: 8-mer, flanks averaged, mean of replicates
Direction: higher = stronger binding
Strand | E-score
CGATCAAA | -0.0519
ACAACCGA | -0.0289
CCATGAGA | -0.00226
CGCGTACC | -0.238
ATGCGACA | 0.0372
AACCAGCA | -0.0956
CGTTTCGC | -0.229
CTCCGGAA | -0.131
AAGGCATA | 0.222
ACACTGCC | -0.0709
CCTGTGAC | -0.19
TACAAAAA | 0.364
GCTAAGAC | -0.0268
AGTTCGTC | -0.121
AACTGCCA | -0.127
AAAAGTCC | -0.0586
GTAAACTA | 0.203
AGTCAATC | 0.023
ACAAGTCA | 0.0509
TCTCGACA | 0.0858
CACTCGTA | -0.0406

For quick reference, copied from above (set 1):
Strand | E-score
GCCAAGAC | -0.183
GTCGGGGA | 0.199
AGGCAGGG | -0.255
GGGCCCAA | -0.204
ATGAGAGC | -0.226
CTTGAACA | -0.148
